Measurements from different studies.
Protocols differ between the studies behind these lines. “And” joins repeats or separate records; there may be more than shown. ± marks the error that the study gave.
CYP2E1: Cytochrome P450 2E1 (CYP2E1, Homo sapiens, UniProt P05181)
Chain of UniProt P05181 (whole entry, looked up): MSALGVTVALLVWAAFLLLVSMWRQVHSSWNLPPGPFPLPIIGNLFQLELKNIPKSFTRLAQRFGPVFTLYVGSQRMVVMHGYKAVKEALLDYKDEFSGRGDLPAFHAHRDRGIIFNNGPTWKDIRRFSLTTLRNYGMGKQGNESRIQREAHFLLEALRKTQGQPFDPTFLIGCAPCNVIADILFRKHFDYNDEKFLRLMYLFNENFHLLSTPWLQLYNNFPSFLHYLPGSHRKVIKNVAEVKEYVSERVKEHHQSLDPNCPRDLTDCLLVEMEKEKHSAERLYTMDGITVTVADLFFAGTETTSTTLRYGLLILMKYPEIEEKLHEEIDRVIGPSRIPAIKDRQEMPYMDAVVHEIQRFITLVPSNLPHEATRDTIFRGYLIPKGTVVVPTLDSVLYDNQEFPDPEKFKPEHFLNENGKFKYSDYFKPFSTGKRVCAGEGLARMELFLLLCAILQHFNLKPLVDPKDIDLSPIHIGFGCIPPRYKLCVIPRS
CYP2C19: Cytochrome P450 2C19 (CYP2C19, Homo sapiens, UniProt P33261)
Chain of UniProt P33261 (whole entry, looked up): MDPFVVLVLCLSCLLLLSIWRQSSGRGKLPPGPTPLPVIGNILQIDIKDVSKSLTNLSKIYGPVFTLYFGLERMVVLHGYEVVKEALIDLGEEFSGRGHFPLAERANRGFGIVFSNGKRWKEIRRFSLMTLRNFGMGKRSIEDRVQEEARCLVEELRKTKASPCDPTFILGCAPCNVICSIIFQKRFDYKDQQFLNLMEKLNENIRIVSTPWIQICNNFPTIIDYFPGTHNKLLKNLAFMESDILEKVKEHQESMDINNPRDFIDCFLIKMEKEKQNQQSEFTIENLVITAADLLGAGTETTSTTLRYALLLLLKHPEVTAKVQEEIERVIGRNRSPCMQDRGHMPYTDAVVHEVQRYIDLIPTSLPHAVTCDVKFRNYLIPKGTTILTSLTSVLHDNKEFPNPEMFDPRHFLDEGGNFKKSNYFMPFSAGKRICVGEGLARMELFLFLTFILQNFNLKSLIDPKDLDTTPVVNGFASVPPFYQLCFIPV
CYP2C9: Cytochrome P450 2C9 (CYP2C9, Homo sapiens, UniProt P11712)
Chain of UniProt P11712 (whole entry, looked up): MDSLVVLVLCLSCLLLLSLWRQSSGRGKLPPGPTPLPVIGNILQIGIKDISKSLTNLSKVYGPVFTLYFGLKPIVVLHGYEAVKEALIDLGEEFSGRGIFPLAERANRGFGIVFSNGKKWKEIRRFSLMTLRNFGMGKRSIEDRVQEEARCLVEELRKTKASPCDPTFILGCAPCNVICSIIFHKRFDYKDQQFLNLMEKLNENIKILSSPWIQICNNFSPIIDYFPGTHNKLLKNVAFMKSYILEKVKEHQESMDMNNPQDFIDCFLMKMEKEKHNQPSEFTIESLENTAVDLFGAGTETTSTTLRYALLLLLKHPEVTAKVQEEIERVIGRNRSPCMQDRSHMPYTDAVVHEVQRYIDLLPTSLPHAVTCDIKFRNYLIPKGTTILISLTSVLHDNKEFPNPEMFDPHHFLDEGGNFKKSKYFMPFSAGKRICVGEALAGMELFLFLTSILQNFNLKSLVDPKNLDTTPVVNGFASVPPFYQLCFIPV
Abcg2: Broad substrate specificity ATP-binding cassette transporter ABCG2 (Abcg2, Rattus norvegicus, UniProt Q80W57)
Chain of UniProt O15245 (whole entry, looked up): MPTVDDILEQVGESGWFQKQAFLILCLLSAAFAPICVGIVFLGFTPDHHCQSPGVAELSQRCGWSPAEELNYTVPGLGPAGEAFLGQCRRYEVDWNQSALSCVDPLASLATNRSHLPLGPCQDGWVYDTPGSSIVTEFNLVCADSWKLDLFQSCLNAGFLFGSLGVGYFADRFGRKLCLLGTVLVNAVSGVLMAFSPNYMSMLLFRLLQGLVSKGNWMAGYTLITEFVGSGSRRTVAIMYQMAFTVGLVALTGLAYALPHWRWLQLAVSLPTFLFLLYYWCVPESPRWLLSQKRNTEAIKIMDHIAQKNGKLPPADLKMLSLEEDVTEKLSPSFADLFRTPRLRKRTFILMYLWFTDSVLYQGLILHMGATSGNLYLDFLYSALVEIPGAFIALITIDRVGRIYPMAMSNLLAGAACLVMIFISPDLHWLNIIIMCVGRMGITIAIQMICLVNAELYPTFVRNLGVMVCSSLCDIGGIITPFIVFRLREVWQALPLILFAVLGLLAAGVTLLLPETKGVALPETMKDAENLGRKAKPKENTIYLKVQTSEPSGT
Chain of UniProt Q80W57 (whole entry, looked up): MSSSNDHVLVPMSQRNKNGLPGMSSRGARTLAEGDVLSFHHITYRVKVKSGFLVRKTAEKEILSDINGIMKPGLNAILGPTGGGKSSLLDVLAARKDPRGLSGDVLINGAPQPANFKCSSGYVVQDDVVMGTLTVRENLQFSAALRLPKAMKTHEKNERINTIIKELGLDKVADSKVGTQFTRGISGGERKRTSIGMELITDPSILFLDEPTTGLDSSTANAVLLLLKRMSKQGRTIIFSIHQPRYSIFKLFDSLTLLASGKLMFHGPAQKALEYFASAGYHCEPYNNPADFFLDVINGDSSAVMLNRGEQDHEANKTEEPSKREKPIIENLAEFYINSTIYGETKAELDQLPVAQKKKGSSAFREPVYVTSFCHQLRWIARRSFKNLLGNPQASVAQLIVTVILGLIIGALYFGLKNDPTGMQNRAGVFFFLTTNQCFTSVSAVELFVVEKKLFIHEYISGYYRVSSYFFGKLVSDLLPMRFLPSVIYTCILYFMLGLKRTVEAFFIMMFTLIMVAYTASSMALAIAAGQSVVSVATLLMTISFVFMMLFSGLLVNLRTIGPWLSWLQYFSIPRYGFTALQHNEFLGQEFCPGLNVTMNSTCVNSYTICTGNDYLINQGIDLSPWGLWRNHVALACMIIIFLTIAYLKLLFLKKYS
Chain of UniProt O15244 (whole entry, looked up): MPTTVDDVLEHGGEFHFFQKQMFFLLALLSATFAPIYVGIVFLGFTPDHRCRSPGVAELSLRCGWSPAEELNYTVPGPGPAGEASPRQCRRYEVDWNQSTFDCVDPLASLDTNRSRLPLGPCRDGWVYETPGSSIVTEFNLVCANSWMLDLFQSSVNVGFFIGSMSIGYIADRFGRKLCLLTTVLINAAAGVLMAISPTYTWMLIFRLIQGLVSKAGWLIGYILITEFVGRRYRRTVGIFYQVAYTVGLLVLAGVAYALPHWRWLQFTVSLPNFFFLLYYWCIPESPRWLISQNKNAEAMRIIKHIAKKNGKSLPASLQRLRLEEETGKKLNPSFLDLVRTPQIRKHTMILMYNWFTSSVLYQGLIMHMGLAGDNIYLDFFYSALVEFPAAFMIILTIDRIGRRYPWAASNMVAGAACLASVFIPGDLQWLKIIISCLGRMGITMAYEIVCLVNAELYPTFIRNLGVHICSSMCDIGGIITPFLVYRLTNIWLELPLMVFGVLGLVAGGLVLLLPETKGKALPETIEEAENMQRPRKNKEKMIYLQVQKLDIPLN
Chain of UniProt Q8TCC7 (whole entry, looked up): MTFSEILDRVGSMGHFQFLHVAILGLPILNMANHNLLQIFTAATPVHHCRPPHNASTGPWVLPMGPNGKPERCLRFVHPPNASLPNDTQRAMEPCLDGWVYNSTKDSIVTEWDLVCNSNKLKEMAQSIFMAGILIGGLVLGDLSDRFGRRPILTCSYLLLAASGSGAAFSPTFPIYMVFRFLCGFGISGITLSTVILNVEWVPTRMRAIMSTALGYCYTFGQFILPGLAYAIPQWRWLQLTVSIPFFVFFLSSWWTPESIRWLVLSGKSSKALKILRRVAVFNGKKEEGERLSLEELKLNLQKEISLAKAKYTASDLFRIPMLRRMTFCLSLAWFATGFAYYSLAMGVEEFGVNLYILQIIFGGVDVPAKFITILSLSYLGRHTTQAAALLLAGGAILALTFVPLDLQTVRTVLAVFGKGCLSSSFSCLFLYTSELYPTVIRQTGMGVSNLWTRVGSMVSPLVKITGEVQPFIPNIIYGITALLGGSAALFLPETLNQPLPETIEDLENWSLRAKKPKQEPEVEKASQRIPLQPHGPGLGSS
Chain of UniProt P11509 (whole entry, looked up): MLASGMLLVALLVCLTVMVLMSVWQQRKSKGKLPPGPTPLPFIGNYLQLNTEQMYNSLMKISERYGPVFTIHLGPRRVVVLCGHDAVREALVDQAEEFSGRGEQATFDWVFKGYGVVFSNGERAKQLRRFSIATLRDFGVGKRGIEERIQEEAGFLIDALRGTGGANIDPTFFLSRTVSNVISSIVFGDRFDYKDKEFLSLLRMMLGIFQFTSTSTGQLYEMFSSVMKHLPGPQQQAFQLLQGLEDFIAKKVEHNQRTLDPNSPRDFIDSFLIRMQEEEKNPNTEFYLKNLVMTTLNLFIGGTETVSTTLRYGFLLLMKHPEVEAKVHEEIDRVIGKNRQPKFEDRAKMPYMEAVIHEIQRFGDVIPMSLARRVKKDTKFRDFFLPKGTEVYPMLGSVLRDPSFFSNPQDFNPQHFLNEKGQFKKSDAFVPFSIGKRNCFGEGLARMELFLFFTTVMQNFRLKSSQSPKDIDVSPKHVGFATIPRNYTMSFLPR
Chain of UniProt P22310 (whole entry, looked up): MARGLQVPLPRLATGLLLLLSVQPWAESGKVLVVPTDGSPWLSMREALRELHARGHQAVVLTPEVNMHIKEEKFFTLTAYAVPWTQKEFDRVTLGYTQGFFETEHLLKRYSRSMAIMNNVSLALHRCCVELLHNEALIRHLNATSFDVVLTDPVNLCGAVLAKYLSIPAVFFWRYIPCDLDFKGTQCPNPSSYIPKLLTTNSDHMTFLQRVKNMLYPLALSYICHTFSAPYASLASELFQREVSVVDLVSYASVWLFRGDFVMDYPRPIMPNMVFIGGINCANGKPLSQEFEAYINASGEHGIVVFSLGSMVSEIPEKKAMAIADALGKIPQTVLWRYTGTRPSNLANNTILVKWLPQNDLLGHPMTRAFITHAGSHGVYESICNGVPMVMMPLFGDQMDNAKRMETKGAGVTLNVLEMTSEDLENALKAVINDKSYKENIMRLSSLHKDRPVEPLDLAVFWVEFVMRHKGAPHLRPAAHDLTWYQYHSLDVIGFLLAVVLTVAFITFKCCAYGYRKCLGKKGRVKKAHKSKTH

`CCc1oc2ccccc2c1C(=O)c1ccc(OC)cc1` gave an IC50 of 115 µM (CYP2E1; p-nitrophenol hydroxylation, inhibitor; 10 min, together with: p-nitrophenol 100 µM).
For `CS(=O)(=O)c1ccc([C@@H](O)[C@@H](CF)NC(=O)C(Cl)Cl)cc1`, “net efflux ratio” read 1.52 ± 0.1 (BCRP (chicken); efflux transport, bidirectional transport; MDCK expressing chicken Abcg2; 20 µM, together with: allicin 5 µM preincubated 2 h).
The inhibition of `CN1CCN(CCCN2c3ccccc3Sc3ccc(C(F)(F)F)cc32)CC1` is reported as 68% (UGT1A4 (Homo sapiens, UniProt P22310); nicotine glucuronidation, inhibitor; microsomes of transfected HEK293; 100 µM, pH 7.4, together with: nicotine).
`COc1ccc2[nH]c([S+]([O-])Cc3ncc(C)c(OC)c3C)nc2c1` (centres unmarked) gave an AUC(0-inf) of 8.5 ± 3.6 µM·h (CYP2C19; human, plasma; oral, dose not given, day 12, fluoxetine treatment, together with: fluoxetine).
`C=C` has a Km of 13 ± 1 µM (CYP2E1; substrate, headspace gas uptake, item: ethylene oxide formation; human, pooled liver microsomes).
`6-carboxyfluorescein` gave a Km of 84.1 ± 31.8 µM (SLCO2A1 (Homo sapiens, UniProt Q92959); uptake, substrate; HEK293F expressing SLCO2A1; pH 6.0).
For `CC[C@H](C)[C@H](NC(=O)[C@H](CCC(=O)O)NC(=O)[C@H](CO)NC(=O)[C@@H](NC(=O)[C@@H](N)CO)C(C)C)C(=O)N[C@@H](CCC(N)=O)C(=O)N[C@@H](CC(C)C)C(=O)N[C@@H](CCSC)C(=O)N[C@@H](Cc1cnc[nH]1)C(=O)N[C@@H](CC(N)=O)C(=O)N[C@@H](CC(C)C)C(=O)NCC(=O)N[C@@H](CCCCN)C(=O)N[C@@H](Cc1cnc[nH]1)C(=O)N[C@@H](CC(C)C)C(=O)N[C@@H](CC(N)=O)C(=O)N[C@@H](CO)C(=O)N[C@@H](CCSC)C(=O)N[C@@H](CCC(=O)O)C(=O)N[C@@H](CCCN=C(N)N)C(=O)N[C@H](C(=O)N[C@@H](CCC(=O)O)C(=O)N[C@@H](Cc1c[nH]c2ccccc12)C(=O)N[C@@H](CC(C)C)C(=O)N[C@@H](CCCN=C(N)N)C(=O)N[C@@H](CCCCN)C(=O)N[C@@H](CCCCN)C(=O)N[C@@H](CC(C)C)C(=O)N[C@@H](CCC(N)=O)C(=O)N[C@@H](CC(=O)O)C(=O)N[C@H](C(=O)N[C@@H](Cc1cnc[nH]1)C(=O)N[C@@H](CC(N)=O)C(=O)N[C@@H](Cc1ccccc1)C(=O)O)C(C)C)C(C)C`, “remaining intact compound” read 13 ± 1% (chymotrypsin (bovine pancreas); proteolytic degradation, HPLC-UV; 0.5 mg/mL, 1.0 h, pH 6.5, 37 °C, together with: chymotrypsin with soybean trypsin inhibitor).
`CC1=N[C@]2(C(=O)CO)[C@@H](C[C@H]3[C@@H]4C[C@@H](O)C5=CC(=O)C=C[C@]5(C)[C@H]4[C@@H](O)C[C@@]32C)O1` gave an IC50 of > 50 µM (CYP2C9; enzyme activity, inhibitor; human, liver microsomes; with preincubation).
The Ki of `CCCCC=O` is reported as 155 ± 13 µM (CYP2E1; competitive inhibitor; human liver S9; together with: p-nitrophenol substrate).
For `N=C(N)NC(=N)NCC(c1ccccc1)c1ccccc1`, the IC50 was 53 µM and 52.7 µM (SLC22A2 (Homo sapiens, UniProt O15244); transporter uptake, inhibitor, radiometric).
With `O=C(O)c1ccc(O)c(O)c1` the inhibition was > 50% (SLC22A8 (Homo sapiens, UniProt Q8TCC7); transporter uptake, inhibitor; HEK293; 100 µM).
For `COc1cc(CCc2cnc3ccn(S(=O)(=O)c4cn(C)cn4)c3n2)cc(OC)c1`, the inhibition was 7% (CYP2C19; enzyme activity, inhibitor; human, liver microsomes; 10 µM, 20 min, pH 7.4).
`O=c1[nH]c(=O)c2[nH]cnc2[nH]1` gave a dehydrogenase activity of 2.12 ± 0.48 nmol/min/mg protein (Xdh (Mus musculus, UniProt Q00519); substrate; wild type mouse liver cytosol; 50 µM, pH 7.8).
The Ki of `CCCCCCCC=O` is reported as 13 ± 1 µM (CYP2E1; competitive inhibitor; human liver S9; together with: p-nitrophenol substrate).
For `Nc1ncn([C@@H]2O[C@H](CO)[C@@H](O)[C@H]2O)c(=O)n1`, the inhibition was 27% (CYP2E1; enzyme activity, inhibitor; human liver microsomes; 100 µM, together with: chlorzoxazone 40 µM).
`CCC/C=C/C=O` has a Ki of 6.7 ± 0.2 µM (CYP2E1; enzyme activity, competitive inhibitor; human liver S9; together with: p-nitrophenol substrate).
For `Cc1coc2c1CC[C@@H](C)C2`, the remaining activity was 115 ± 13% (Cytochrome P450 2A6 (CYP2A6, Homo sapiens, UniProt P11509); inactivator; 5 µM, 0 min, pH 7.4, 30 °C, together with: NADPH, glutathione 10 mM).
For `CCC=CC=O`, the Ki was 13 ± 1 µM (CYP2E1; enzyme activity, competitive inhibitor; human liver S9; together with: p-nitrophenol substrate).
The inhibition of `O=C1Nc2ccc(Cl)cc2[C@@](C#CC2CC2)(C(F)(F)F)O1` is reported as 35% (CYP2C19; enzyme activity, inhibitor; human, liver microsomes; 10 µM, pH 7.4).
For `O=C(O)CCCCCCCCCCCCCCC(=O)O`, “trough plasma concentration” read 70.3 nM (OATP1B1; human, plasma; concentration not given, 12 h after first cyclosporine dose, genotype TC, together with: oral cyclosporine plus pravastatin).
`CC[C@@]1(O)C(=O)OCc2c1cc1n(c2=O)Cc2cc3c(CN(C)C)c(O)ccc3nc2-1`: “Cmax fold increase” 5 fold (Abcg2; substrate; rat, plasma; oral, dose not given, together with: elacridar constant infusion; baseline: with over without elacridar).
With `O=c1[nH]c(=O)c(Cc2cccc(C(F)(F)F)c2)c([C@H]2CC[C@H](c3ccccc3)CC2)[nH]1` the Cmax was 492 ng/mL (CYP2C19; human, plasma; oral, 600 mg, day 1, single dose, fed, geometric mean).
For `N=C(N)NC(=N)NC1Cc2ccccc2C1`, the IC50 was 22.1 µM and 22 µM (SLC22A1 (Homo sapiens, UniProt O15245); transporter uptake, inhibitor, radiometric).
`O=C(O)CCCCCCCCCCCCC(=O)O`: “trough plasma concentration” 77.7 nM (OATP1B1; human, plasma; concentration not given, 12 h after first cyclosporine dose, genotype TT, together with: oral cyclosporine plus pravastatin).
With `O=C(O)c1cc(/N=N/c2ccc(S(=O)(=O)Nc3ccccn3)cc2)ccc1O` the AUC(0-t) was 327 ± 36 ng·h/mL (Abcg2; substrate; Sprague-Dawley rat, male, plasma; oral, 2 mg/kg, together with: 3,4'-dimethoxyflavone 5 mg/kg).
The inhibition of `Cc1noc(C)c1Cn1cc(N2C(=O)N(Cc3cccc(O)c3)C(C)(C)C2=O)cn1` is reported as 80% (CYP2C9; enzyme activity, inhibitor, fluorescence; Sf9; 10 µM).
